# Results gathered from unrelated publications.
# Each line is one published result; not all experiments were run side by side. ± marks the error that the study gave.
# Cell line: RAW264.7
SMILES,test,setting,scale,quantity,value
CC(=O)O[C@@H]1CC[C@@]2(C)C(CC[C@]3(C)C2C(=O)C=C2C4[C@@H](C)[C@H](C)CC[C@]4(C)CC[C@]23C)[C@@]1(C)C(=O)OCc1cn(CC(=O)Oc2cc(C)ccc2C(C)C)nn1 (stereo partly drawn),"NO release, inhibitor, Griess","10 µM, 24 h, LPS-stimulated",,inhibition,85.7%
CN(C)C1CCN(c2nc3oc4ccccc4c(=O)c3s2)CC1,"TNF-α release, inhibitor, ELISA","48 h, LPS-stimulated",,IC50,38.6 µM
CC(=O)O[C@@H]1CC[C@@]2(C)C(CC[C@]3(C)C2C(=O)C=C2C4[C@@H](C)[C@H](C)CC[C@]4(C)CC[C@]23C)[C@@]1(C)C(=O)N/N=C1/C(=O)Nc2ccccc21 (stereo partly drawn),"NO release, inhibitor, Griess","10 µM, 24 h, LPS-stimulated",,inhibition,91%
C/C=C(/NC(=O)CCCCCCC)C(=O)N/C(=C/C)C(=O)N[C@H](CC(C)C)C(=O)N[C@@H](CC(C)C)C(=O)Nc1ccc(C(=O)N[C@H](C(=O)O)[C@@H](C)O)cc1,DCFH-DA flow cytometry,"20 µM pretreatment, added: LPS",,intracellular ROS,decreased
CCOC(=O)c1csc2nc(-c3cccc(NC(=O)c4cc5cc(NC(=O)C(C)Cl)ccc5n4Cc4ccc(C(F)(F)F)cc4)c3)cn12 (stereo not drawn),,"10 µM, added: LPS",reference: control,intracellular Fe2+ level,increased
COC(=O)C1OC(Oc2c(-c3ccccc3)oc3cc(O)c(O)c(O)c3c2=O)C(O)C(O)C1O (stereo not drawn),ELISA,"10 µM, added: LPS",,IL-1β level,189 pg/mL
CC(=O)O[C@@H]1CC[C@@]2(C)C(CC[C@]3(C)C2C(=O)C=C2C4[C@@H](C)[C@H](C)CC[C@]4(C)CC[C@]23C)[C@@]1(C)C(=O)N/N=C\c1ccccc1O (stereo partly drawn),"NO release, inhibitor, Griess","10 µM, 24 h, LPS-stimulated",,inhibition,67.7%
C[C@H]1[C@H](C)CC[C@]2(C(=O)O)CC[C@]3(C)C(=CC[C@@H]4[C@@]5(C)CC[C@H](O[C@@H]6O[C@@H](C)[C@H](O)[C@@H](O)[C@H]6O)C(C)(C)[C@@H]5CC[C@]43C)[C@H]12,"LPS-induced NO production, inhibitor, Griess reaction","24 h, added: 100 ng/mL LPS",,EC50,10.5 ± 0.3 µM
CCc1c(-c2ccc(O)cc2)nn(-c2ccc(O)cc2)c1-c1ccc(OCCN2CCCCC2)cc1,"cytotoxicity, Alamar blue",,,EC50,11.6 ± 0.9 µM
CC(=O)O[C@@H]1CC[C@@]2(C)C(CC[C@]3(C)C2C(=O)C=C2C4[C@@H](C)[C@H](C)CC[C@]4(C)CC[C@]23C)[C@@]1(C)C(=O)OCC(=O)Oc1cc(C)ccc1C(C)C (stereo partly drawn),"NO release, inhibitor, Griess","10 µM, 24 h, LPS-stimulated",,inhibition,89.7%
CC(=O)C1=C(C)NC(SCC(=O)c2ccccc2)=C(C#N)C1c1sccc1C (stereo not drawn),RNA-seq,"10 µM, overnight, added: LPS 20 ng/mL",,number of repressed genes,143
CC[C@H](C)[C@H](NC(=O)[C@H](CCCCN)NC(=O)[C@H](CC(N)=O)NC(=O)CNC(=O)[C@@H](NC(=O)[C@H](C)NC(=O)[C@H](CCCNC(=N)N)NC(=O)[C@H](CC(C)C)NC(=O)[C@H](CCCCN)NC(=O)[C@H](CCCCN)NC(=O)[C@H](CCCCN)NC(=O)[C@H](C)NC(=O)[C@H](CCCCN)NC(=O)[C@@H]1CSSC[C@H](NC(=O)[C@H](CCCNC(=N)N)NC(=O)CN)C(=O)N[C@@H](CC(N)=O)C(=O)N[C@@H](CC(C)C)C(=O)N[C@@H](CC(C)C)C(=O)N1)C(C)C)C(=O)N[C@@H](CCCCN)C(=O)N[C@@H](CCC(=O)O)C(=O)N[C@H](C(=O)N[C@@H](CCCCN)C(=O)N[C@@H](CC(N)=O)C(=O)N[C@H](C(=O)N[C@H](C(=O)N[C@@H](Cc1ccccc1)C(=O)N[C@@H](CC(N)=O)C(=O)N[C@@H](CCCNC(=N)N)C(=O)O)C(C)C)C(C)C)[C@@H](C)CC,,"20 µM, 24 h, added: LPS 2 h before, washed",,IL-6 reduction,48.9%
CCOC(=O)c1nc2cc(Cl)c(Cl)cc2nc1N1CCN(C(=O)Nc2ccc(N3CCNCC3)cc2)CC1,Western blot,"concentration not given, 3 h pretreatment, added: LPS, 4 h",,KEAP1 protein level,decreased
O=[N+]([O-])c1cccc(S(=O)(=O)NC[C@@H](O)[C@@H]2CCc3cc(F)ccc3O2)c1,"inhibitor, refers to: nitrite","100 and 200 µM, pretreatment, added: LPS",,NO production,inhibited
CCOC(=O)c1csc2nc(-c3cccc(NC(=O)c4cc5cc(NC(=O)c6ccco6)ccc5n4Cc4ccc(C(F)(F)F)cc4)c3)cn12,,"10 µM, added: LPS",reference: control,intracellular ROS level,increased
CC(=O)O[C@@H]1CC[C@@]2(C)C(CC[C@]3(C)C2C(=O)C=C2C4[C@@H](C)[C@H](C)CC[C@]4(C)CC[C@]23C)[C@@]1(C)C(=O)N/N=C\c1ccccc1 (stereo partly drawn),"NO release, inhibitor, Griess","10 µM, 24 h, LPS-stimulated",,inhibition,59.2%
C[C@H]1[C@H](C)CC[C@]2(C(=O)O)CC[C@]3(C)C(=CC[C@@H]4[C@@]5(C)CC[C@H](O[C@@H]6O[C@@H](C)[C@H](O[C@@H]7O[C@@H](C)[C@H](O)[C@@H](O)[C@H]7O)[C@@H](O[C@@H]7O[C@@H](C)[C@H](O)[C@@H](O)[C@H]7O)[C@H]6O[C@@H]6O[C@@H](C)[C@H](O)[C@@H](O)[C@H]6O)C(C)(C)[C@@H]5CC[C@]43C)[C@H]12,"LPS-induced NO production, inhibitor, Griess reaction","24 h, added: 100 ng/mL LPS",,EC50,11 ± 2 µM
COc1ccc(/C=N\NC(=O)[C@]2(C)C3CC[C@]4(C)C(C(=O)C=C5C6[C@@H](C)[C@H](C)CC[C@]6(C)CC[C@]54C)[C@@]3(C)CC[C@H]2OC(C)=O)cc1 (stereo partly drawn),"NO release, inhibitor, Griess","10 µM, 24 h, LPS-stimulated",,inhibition,80.7%
CN(CCO)c1ccc(/C=C/C(=O)C(c2ccccc2)c2ccccc2)cc1,"IL-6 release, inhibitor, ELISA","10 µM, LPS-stimulated",,inhibition,73 to 89%
CC(=O)O[C@@H]1CC[C@@]2(C)C(CC[C@]3(C)C2C(=O)C=C2C4[C@@H](C)[C@H](C)CC[C@]4(C)CC[C@]23C)[C@@]1(C)C(=O)N/N=C\C=Cc1ccccc1 (stereo partly drawn),"NO release, inhibitor, Griess","10 µM, 24 h, LPS-stimulated",,inhibition,84.3%
Cc1ccc(CN2C(=O)/C(=N\c3ccc(Cl)cc3Br)c3ccccc32)cc1,,"1.5 µM, added: LPS",,CD86-positive cells,88.9%

# Some of these lines once more:
SMILES,test,setting,scale,quantity,value
COC(=O)C1OC(Oc2c(-c3ccccc3)oc3cc(O)c(O)c(O)c3c2=O)C(O)C(O)C1O (stereo not drawn),ELISA,"10 µM, added: LPS",,IL-1β level,189 pg/mL
